Measured values of several laboratories.
Parts stem from different laboratories: compare values within a part only.

Series 1 — method: universal PBM; form: double-stranded DNA, one strand shown; sample: in vitro; concentration: 600 nM; direction: higher = stronger binding; quantity: E-score
Target: Sal-like protein 4, full length isoform A (SALL4, Homo sapiens, UniProt Q9UJQ4, residues 1-1053)
UniProt Q9UJQ4, sequence (whole entry, looked up): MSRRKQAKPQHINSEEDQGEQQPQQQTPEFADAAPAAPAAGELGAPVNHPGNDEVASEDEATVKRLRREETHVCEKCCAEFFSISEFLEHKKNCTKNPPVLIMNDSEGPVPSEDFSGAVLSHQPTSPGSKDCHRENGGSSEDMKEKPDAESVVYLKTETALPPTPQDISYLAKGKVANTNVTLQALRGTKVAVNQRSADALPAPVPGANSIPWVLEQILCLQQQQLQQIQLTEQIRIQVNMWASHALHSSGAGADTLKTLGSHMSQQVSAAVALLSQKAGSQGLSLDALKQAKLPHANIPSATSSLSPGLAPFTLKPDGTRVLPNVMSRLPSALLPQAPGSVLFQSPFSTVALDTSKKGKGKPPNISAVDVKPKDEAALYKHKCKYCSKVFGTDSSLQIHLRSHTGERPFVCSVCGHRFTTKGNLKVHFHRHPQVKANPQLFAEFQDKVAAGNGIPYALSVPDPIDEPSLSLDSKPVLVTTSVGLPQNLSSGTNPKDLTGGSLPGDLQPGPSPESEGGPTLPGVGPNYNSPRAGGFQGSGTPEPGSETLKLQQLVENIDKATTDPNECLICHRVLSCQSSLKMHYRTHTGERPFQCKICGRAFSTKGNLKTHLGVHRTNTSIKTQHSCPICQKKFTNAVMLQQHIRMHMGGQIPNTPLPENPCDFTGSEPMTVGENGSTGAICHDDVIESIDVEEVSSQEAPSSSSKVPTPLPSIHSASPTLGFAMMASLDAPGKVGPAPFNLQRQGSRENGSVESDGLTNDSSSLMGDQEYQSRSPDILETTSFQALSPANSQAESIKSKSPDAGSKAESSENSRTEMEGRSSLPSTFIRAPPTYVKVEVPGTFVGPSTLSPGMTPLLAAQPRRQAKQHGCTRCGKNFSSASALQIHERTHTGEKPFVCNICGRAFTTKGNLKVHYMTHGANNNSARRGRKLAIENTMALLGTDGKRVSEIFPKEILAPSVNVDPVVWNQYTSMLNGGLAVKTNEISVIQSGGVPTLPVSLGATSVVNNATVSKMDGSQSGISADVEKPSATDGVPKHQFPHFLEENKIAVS
Setting: 8-mer, flanks averaged, mean of replicates
Oligonucleotide = ACAATAGT; result = 0.161
Oligonucleotide = ACCTTATG; result = 0.228
Oligonucleotide = CATGATGG; result = -0.0808
Oligonucleotide = CCCCGCTC; result = -0.344
Oligonucleotide = GATTTTAA; result = 0.235
Oligonucleotide = AGATATTG; result = 0.321
Oligonucleotide = AAACCTCC; result = -0.16
Oligonucleotide = ACCTCTCA; result = -0.182
Oligonucleotide = CTAAGTTC; result = -0.219
Oligonucleotide = CGGGGCAG; result = -0.35
Oligonucleotide = AACTCTAT; result = 0.195
Oligonucleotide = CCCTCCGA; result = -0.341
Oligonucleotide = TAGTAGGA; result = -0.141
Oligonucleotide = CCCGCCAG; result = -0.236
Oligonucleotide = AGCATACA; result = 0.191
Oligonucleotide = CGTGAGCC; result = -0.282
Oligonucleotide = CGGTCAAA; result = 0.0637
Oligonucleotide = CAGCGCAG; result = -0.181
Oligonucleotide = CAGTCCAA; result = -0.113
Oligonucleotide = TCGGTAAA; result = 0.133
Oligonucleotide = GTTCAATA; result = 0.226
Oligonucleotide = AGGCAACT; result = 0.092
Oligonucleotide = ACTGCCAC; result = -0.19
Oligonucleotide = AAGACTCG; result = -0.0743
Oligonucleotide = ACTCGAAA; result = 0.0265

Series 2 — method: RNA Bind-n-Seq; form: RNA; sample: in vitro; concentration: 20 nM; setting: 6-mer, flanks averaged, single round; with: 150 mM KCl; baseline: input library; direction: higher = stronger binding; quantity: 6-mer enrichment (R)
Target: TAR DNA-binding protein 43, full length, His tag (TARDBP, Homo sapiens, UniProt Q13148, residues 1-414)
Oligonucleotide = CCCAAC; result = 0.624
Oligonucleotide = CCCUAC; result = 0.623
Oligonucleotide = ACGCUG; result = 0.821
Oligonucleotide = UCCCCU; result = 0.672
Oligonucleotide = CUUAGG; result = 0.866
Oligonucleotide = AUCCCC; result = 0.639
Oligonucleotide = GCGGCC; result = 1.49
Oligonucleotide = GGUUGG; result = 3.22
Oligonucleotide = AAACAU; result = 0.6
Oligonucleotide = UGAAAC; result = 0.647
Oligonucleotide = GGAUUU; result = 0.787
Oligonucleotide = AUGGGA; result = 2.06
Oligonucleotide = CGAGGA; result = 1.49
Oligonucleotide = GCGCGA; result = 1.55
Oligonucleotide = CGGAAA; result = 0.856
Oligonucleotide = GUCGUC; result = 0.787
Oligonucleotide = GAGCUA; result = 0.824
Oligonucleotide = AAUGCA; result = 0.737
Oligonucleotide = GGGACU; result = 1.87
Oligonucleotide = ACCUCU; result = 0.579
Oligonucleotide = GUAUAA; result = 0.749
Oligonucleotide = UACCUA; result = 0.58
Oligonucleotide = GCGGGC; result = 4.49
Oligonucleotide = CUGAGG; result = 1.59
Oligonucleotide = GGUUAG; result = 1.52

Series 3 — method: RNA Bind-n-Seq; form: RNA; sample: in vitro; concentration: 365 nM; baseline: no-protein control; direction: higher = stronger binding; quantity: RBNS enrichment (R)
Target: RNA binding protein fox-1 homolog 2, RRM domain, GST-SBP tag (RBFOX2, Homo sapiens, UniProt O43251-10, residues 100-194)
Setting: natural RNA segment, single round, ends assumed
Residues (chain): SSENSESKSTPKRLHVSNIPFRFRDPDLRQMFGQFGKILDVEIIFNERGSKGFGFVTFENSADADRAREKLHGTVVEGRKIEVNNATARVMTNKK
Oligonucleotide = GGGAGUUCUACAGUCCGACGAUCGAUUUACUGAAAUAGCUAAUUGUCAGGUGCUUAAGCUUUUGUGCAGUAAGCCUAAAAGUUAGCAGAAGAUGGCCUCCUGCCAGCAGGAAAUCUUUACCCUUUAGUACCCGUGGAAUUCUCGGGUGCCAA; result = 0.21
Oligonucleotide = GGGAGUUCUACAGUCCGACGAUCGCCUUUUUAACUUUAAACAUGUUUUAGAAUUCACCUAAAGAUCAAAAUAUCAUGGAUUGAACCUCAUCAAUUGAUAGCAGUGAGUGACUGAAGCUUCCAAAUCAAGAAAAUGGAAUUCUCGGGUGCCAA; result = 0.455
Oligonucleotide = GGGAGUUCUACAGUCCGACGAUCGUUCCGUGCUUGCCAACCUAGACCCUGGCAUUAGAAAUUGUUUUGUCAGCAGUCUCUGCCCUCUCGAGAGAGAUGAGCAGCCUCAACUGACGUUUCUAUUAAUGAGUUAUUGGAAUUCUCGGGUGCCAA; result = 0.264
Oligonucleotide = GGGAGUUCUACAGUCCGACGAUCUUGGGAUUCUUGAUGAAAUCCCCUGCCCCGCGUGCGUGUCAGUGCAGAUCCUGCGCACCACGCCCCCUCCCCCAAGUGCCCUCUGCCGAGCCCGUCCUGGUAUUGACUUUUGGAAUUCUCGGGUGCCAA; result = 0.325
Oligonucleotide = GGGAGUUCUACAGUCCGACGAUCUGCCACCAUGGCCAGUAUGUGCAGAGCAGUACUGCAGUGUGUUCAGGGUUAGCGCCCAUGAAAGGGGACCGAGUGUAUGACAAUCUGCGUUGAUCAUGGACUACUAAAAUUGGAAUUCUCGGGUGCCAA; result = 0.417
Oligonucleotide = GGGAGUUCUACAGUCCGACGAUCUGCAAAAUUUUCUACUGGCCAAGUUCAAGUGAGUAAGCCGCGUCCCCCAACUACAGCUGGAGACGGGGCCAGCUCGGCGGCCUGCUGGUCCUCUGCUUGCUGGAACAUUCUGGAAUUCUCGGGUGCCAA; result = 0.271
Oligonucleotide = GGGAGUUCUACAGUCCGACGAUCGAGAAAGUUUGGGGCAUGAUAUAUGUCCAUUUCUCUACGAAAUAUUUGUUAUGGAGCUGUGCUAAUUUCACUAUCAAAAUAUUUGUUGGAUGAAUAAAUGCUACGAAACGUGGAAUUCUCGGGUGCCAA; result = 0.971
Oligonucleotide = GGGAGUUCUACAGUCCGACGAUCUCUGACUGUAGUAAAAGCUGCUUCCUGUCCUGUUCAAGUUGCUGCAGCAGGGGUCAUGCCAAGUCAGGCCUGUAGCUCCUAAUAGGGGCCUAUUUCUACUUUUAUUUUGUUGGAAUUCUCGGGUGCCAA; result = 0.404

Series 4 — method: aptamer microarray, sandwich; form: DNA with 2'F-ANA; sample: in vitro; concentration: 200 nM; with: Cy3 exosite-II aptamer, 400 nM; direction: higher = stronger binding; quantity: mean fluorescence intensity; oligonucleotide: GGTTGGTGTGGTTGG
Target: Prothrombin, mature alpha-thrombin (F2, Homo sapiens, UniProt P00734)
Setting: whole 15-mer aptamer, many near background
Modification = 2'F-ANA at 1 2 3 4 8 10 15; result = 58.6 a.u.
Modification = 2'F-ANA at 1 3 5 6 7 8 11 14 15; result = 74 a.u.
Modification = 2'F-ANA at 1 2 5 7 10 13 14; result = 46.1 a.u.
Modification = 2'F-ANA at 2 3 5 11 14; result = 54.9 a.u.
Modification = 2'F-ANA at 1 4 5 9 10 11 12 13; result = 47.7 a.u.
Modification = 2'F-ANA at 1 3 5 10 12 13; result = 45.9 a.u.
Modification = 2'F-ANA at 1 2 4 5 6 7 13 14 15; result = 48.7 a.u.
Modification = 2'F-ANA at 4 5 6 8 10 12 13 14 15; result = 127 a.u.
Modification = 2'F-ANA at 2 7 8 9 11 12; result = 682 a.u.
Modification = 2'F-ANA at 1 2 8 10 13 14 15; result = 83.7 a.u.
Modification = 2'F-ANA at 1 3 4 5 6 11 14; result = 45.2 a.u.
Modification = 2'F-ANA at 1 3 6 9 15; result = 272 a.u.
Modification = 2'F-ANA at 1 3 5 8 11 12 13; result = 89.2 a.u.
Modification = 2'F-ANA at 3 7 11; result = 1190 a.u.
Modification = 2'F-ANA at 1 2 3 5 8 9 10 11 13 14; result = 88.9 a.u.
Modification = 2'F-ANA at 1 4 8 9 11 15; result = 156 a.u.
Modification = 2'F-ANA at 1 3 4 5 6 8 9; result = 70.5 a.u.

Series 5 — method: protein binding microarray; form: double-stranded DNA, one strand shown; sample: in vitro; concentration: not given; baseline: not given; direction: higher = stronger binding; quantity: E-score
Target: Histone acetyltransferase KAT6A, winged helix 2, GST fusion (KAT6A, Homo sapiens, UniProt Q92794, residues 85-181)
Setting: 8-mer, flanks averaged, mean of 2 arrays, mostly near background
Residues (chain): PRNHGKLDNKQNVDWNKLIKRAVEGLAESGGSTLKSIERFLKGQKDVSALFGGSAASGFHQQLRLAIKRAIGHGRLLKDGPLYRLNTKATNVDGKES
Oligonucleotide = ATTTTCCA; result = 0.0732
Oligonucleotide = GCGGTTCA; result = 0.011
Oligonucleotide = AGACCCAT; result = -0.212
Oligonucleotide = CTCATCTA; result = -0.12
Oligonucleotide = CAGAATGG; result = 0.0188
Oligonucleotide = AGGCGAAT; result = 0.105
Oligonucleotide = CTTACGAA; result = 0.0127
Oligonucleotide = ACGTACAC; result = -0.123
Oligonucleotide = CTAGTAGA; result = 0.0319
Oligonucleotide = CGTACAAA; result = 0.0186
Oligonucleotide = AAGTTCAG; result = 0.0366
Oligonucleotide = AAAAGGAA; result = 0.148
Oligonucleotide = GCGTGCTA; result = -0.172
Oligonucleotide = ATCGGGGG; result = -0.0488
Oligonucleotide = CCGAACCC; result = 0.0278
Oligonucleotide = ATTACACC; result = -0.0616
Oligonucleotide = AAGTATTG; result = -0.15
Oligonucleotide = AAGATCCT; result = 0.0221
Oligonucleotide = AAGGTAGT; result = -0.106
Oligonucleotide = GTGAAACA; result = 0.0542
Oligonucleotide = TACCCCCA; result = -0.158
Oligonucleotide = TACTTGCA; result = -0.177
Oligonucleotide = CATCACCA; result = -0.207
Oligonucleotide = AATAGAAC; result = 0.0251
Oligonucleotide = AGCCATCA; result = -0.0513

Excerpt of the above (series 4):
Modification = 2'F-ANA at 1 2 4 5 6 7 13 14 15; result = 48.7 a.u.
Modification = 2'F-ANA at 4 5 6 8 10 12 13 14 15; result = 127 a.u.
Modification = 2'F-ANA at 2 7 8 9 11 12; result = 682 a.u.
Modification = 2'F-ANA at 1 2 8 10 13 14 15; result = 83.7 a.u.
Modification = 2'F-ANA at 1 3 4 5 6 11 14; result = 45.2 a.u.
Modification = 2'F-ANA at 1 3 6 9 15; result = 272 a.u.
Modification = 2'F-ANA at 1 3 5 8 11 12 13; result = 89.2 a.u.
Modification = 2'F-ANA at 3 7 11; result = 1190 a.u.
Modification = 2'F-ANA at 1 2 3 5 8 9 10 11 13 14; result = 88.9 a.u.
